# Assay results of several laboratories.
# Parts stem from different laboratories: compare values within a part only.

# Sample 1 — technique: aptamer microarray, sandwich; form: DNA with 2'F-ANA; matrix: in vitro; concentration: 200 nM; added: Cy3 exosite-II aptamer, 400 nM; reading: higher = stronger binding; sequence: GGTTGGTGTGGTTGG
# Target: Prothrombin, mature alpha-thrombin (F2, Homo sapiens, UniProt P00734)
# Setting: whole 15-mer aptamer, many near background
Modification,mean fluorescence intensity
2'F-ANA at 1 2 3 7 11 13 14,70.6 a.u.
2'F-ANA at 1 3 6 11 13 14,72.8 a.u.
2'F-ANA at 5 7 9 11 13,54.1 a.u.
2'F-ANA at 1 2 3 4 5 7 8 9 15,64.5 a.u.
2'F-ANA at 1 2 4 5 6 9 11 14,54.1 a.u.
2'F-ANA at 2 6 9 10 12 15,146 a.u.
2'F-ANA at 1 2 6 8 10 11 12 13 14 15,51.2 a.u.
2'F-ANA at 1 4 9 12 13 14 15,129 a.u.
2'F-ANA at 2 5 9 10 11 13 15,45.4 a.u.
2'F-ANA at 3 4 6 7 10 11 12 13,242 a.u.
2'F-ANA at 2 3 4 6 7 10 11 13 14 15,130 a.u.
2'F-ANA at 2 3 4 5 6 7 8 9 10 11 12 14,101 a.u.
2'F-ANA at 2 3 6 7 8 9 11 13,549 a.u.
2'F-ANA at 1 2 3 4 7 11,161 a.u.
2'F-ANA at 2 4 6 8 10 11 12 13,86.5 a.u.
2'F-ANA at 1 2 3 4 5 6 9 10 11 12 13 14 15,52.4 a.u.
2'F-ANA at 1 2 3 7 13,194 a.u.
2'F-ANA at 2 10 11 13 14,87.2 a.u.
2'F-ANA at 2 3 4 7 8 9 10 12 13 14 15,180 a.u.
2'F-ANA at 1 2 3 4 5 8 9 13 14,44 a.u.
2'F-ANA at 1 4 7 8 9 11 13 15,88.6 a.u.
2'F-ANA at 2 3 4 5 7 10 12 14 15,56.3 a.u.

# Sample 2 — technique: protein-binding microarray; form: double-stranded DNA, one strand shown; matrix: in vitro; concentration: 250 nM; setting: 60-bp whole probe; added: salmon DNA 0.4 mg/ml; relative to: random background probes; reading: higher = stronger binding; constant ends, left off below: GCCTAGCAC … GTCTTGATTCGCTTGACGCTGCTG
# Target: Interferon regulatory factor 7, full length, phosphomimetic (IRF7, Homo sapiens, UniProt Q92985, residues 1-503, S101K/S471D/S472D/S475D/S476D/S477D/S483D/S484D/S487D)
# Chain of UniProt Q92985 (whole entry, unmodified, looked up): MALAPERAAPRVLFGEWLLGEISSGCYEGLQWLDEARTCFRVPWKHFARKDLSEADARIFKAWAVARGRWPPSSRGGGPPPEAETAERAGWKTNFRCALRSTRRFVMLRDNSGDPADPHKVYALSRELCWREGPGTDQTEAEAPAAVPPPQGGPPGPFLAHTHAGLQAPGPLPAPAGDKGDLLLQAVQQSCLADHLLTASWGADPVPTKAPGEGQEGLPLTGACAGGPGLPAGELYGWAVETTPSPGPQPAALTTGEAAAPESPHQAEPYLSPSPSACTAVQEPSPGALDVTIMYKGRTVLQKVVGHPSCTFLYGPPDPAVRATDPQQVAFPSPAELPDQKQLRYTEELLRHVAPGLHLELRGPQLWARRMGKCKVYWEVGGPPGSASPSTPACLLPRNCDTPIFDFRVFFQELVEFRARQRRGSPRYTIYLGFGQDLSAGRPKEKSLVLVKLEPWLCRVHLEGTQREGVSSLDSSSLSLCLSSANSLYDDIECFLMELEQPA
Sequence,log fluorescence
GACGGACTGCTTTTCCTAACGTGCTAG,0.324 z-score
TTAGATTTCATTTTCGATTAGTGCTAG,4.24 z-score
CTTTCTTTATGCACTCTTTACGTGCTA,2 z-score
TTAGGACGGGACACTGGGTTAGTGCTA,-0.324 z-score
GACGGACTGGGGTTTCAGGACGTGCTA,-0.921 z-score
TTAGGTATCGGTCTCGCTTAGTGCTAG,1.55 z-score
GACGTTTTCGGGTTTCGAGACGTGCTA,6.38 z-score
TCAAGTTTGTAAATCTTACTGTGCTAG,-0.0209 z-score
TCATCATTATTGTGTCAAACTGTGCTA,0.469 z-score
TTAGATCTCAGTTTTGATTAGTGCTAG,1.24 z-score
GACGGTTCCGGGTATCGGGACGTGCTA,1.1 z-score
TTAGGGATCGGGTATCGGTTAGTGCTA,1.05 z-score
GACGATTCAAGTTTCGAGACGTGCTAG,4.03 z-score
TCATTTTTTTTTTCTGAACTGTGCTAG,1.24 z-score
GACGGACTGGGGACTGGGGACGTGCTA,-0.388 z-score
TTAGCTATCGGTTTCGGTTAGTGCTAG,7.61 z-score
TTACGACTGGGGACTGGGTTAGTGCTA,-0.156 z-score
GACGACTTCAGTATCGAGACGTGCTAG,0.108 z-score
TTGGGTTTCGACACTGGGTTAGTGCTA,2.34 z-score

# Sample 3 — technique: universal PBM; form: double-stranded DNA, one strand shown; matrix: in vitro; concentration: 600 nM; reading: higher = stronger binding
# Target: Sal-like protein 4, full length isoform A (SALL4, Homo sapiens, UniProt Q9UJQ4, residues 1-1053)
# Chain of UniProt Q9UJQ4 (whole entry, looked up): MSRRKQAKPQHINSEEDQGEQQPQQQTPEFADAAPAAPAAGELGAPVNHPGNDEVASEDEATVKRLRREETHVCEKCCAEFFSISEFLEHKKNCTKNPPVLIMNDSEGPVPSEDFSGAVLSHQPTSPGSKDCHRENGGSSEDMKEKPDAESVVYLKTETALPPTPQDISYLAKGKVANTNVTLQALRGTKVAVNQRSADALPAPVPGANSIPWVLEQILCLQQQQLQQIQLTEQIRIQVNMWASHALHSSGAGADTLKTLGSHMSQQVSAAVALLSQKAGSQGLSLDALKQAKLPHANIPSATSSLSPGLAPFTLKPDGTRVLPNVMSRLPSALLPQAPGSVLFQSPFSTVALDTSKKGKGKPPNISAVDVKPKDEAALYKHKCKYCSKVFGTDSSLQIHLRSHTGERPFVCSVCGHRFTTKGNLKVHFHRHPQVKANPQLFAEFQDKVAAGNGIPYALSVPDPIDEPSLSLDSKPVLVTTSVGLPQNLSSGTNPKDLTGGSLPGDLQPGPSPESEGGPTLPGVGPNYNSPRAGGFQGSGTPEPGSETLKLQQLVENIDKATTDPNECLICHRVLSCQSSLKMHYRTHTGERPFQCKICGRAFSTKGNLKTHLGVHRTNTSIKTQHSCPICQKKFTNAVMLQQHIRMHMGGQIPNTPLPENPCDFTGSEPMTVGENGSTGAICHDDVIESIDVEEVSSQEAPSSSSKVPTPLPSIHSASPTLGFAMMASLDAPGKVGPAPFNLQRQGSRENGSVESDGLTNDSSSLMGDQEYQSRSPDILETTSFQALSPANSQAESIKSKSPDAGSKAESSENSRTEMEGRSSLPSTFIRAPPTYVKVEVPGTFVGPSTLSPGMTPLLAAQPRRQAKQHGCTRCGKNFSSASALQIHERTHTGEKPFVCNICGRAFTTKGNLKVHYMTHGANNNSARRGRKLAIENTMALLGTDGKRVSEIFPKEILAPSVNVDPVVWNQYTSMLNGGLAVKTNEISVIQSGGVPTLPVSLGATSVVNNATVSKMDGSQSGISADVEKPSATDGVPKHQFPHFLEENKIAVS
# Setting: 8-mer, flanks averaged, mean of replicates
Sequence,E-score
AGTCACAC,-0.0197
AAAGGCGG,-0.0279
AGATTTGG,-0.00319
TACTGTCA,0.14
AAGCTGAG,-0.0913
AATATCCC,0.145
GAGAAATA,0.203
CAGCTTCA,0.109
AGTGCTAC,-0.00643
AGCAAAAG,-0.00461
ACTTTTTC,0.138
CCTTGTTC,-0.0894
GAAGCTTA,0.124
GCCCGGCC,-0.39
CGCGGACG,-0.323
AACGCGAG,-0.0468
ACGACTCA,-0.0425
ATGTAAAG,0.182
AGTCCGCC,-0.131
ACAGGCAC,-0.237
ATTGCCTC,0.0696
AGGTATGC,0.12
ACGGCATA,0.0949
ACGATAAT,0.357
AATCAGTC,0.00601

# Sample 4 — technique: protein binding microarray; form: double-stranded DNA, one strand shown; matrix: in vitro; concentration: not given; relative to: not given; reading: higher = stronger binding
# Target: Histone acetyltransferase KAT6A, both winged helices, GST fusion (KAT6A, Homo sapiens, UniProt Q92794, residues 1-181)
# Setting: 8-mer, flanks averaged, mean of 2 arrays, mostly near background
# Target sequence (chain): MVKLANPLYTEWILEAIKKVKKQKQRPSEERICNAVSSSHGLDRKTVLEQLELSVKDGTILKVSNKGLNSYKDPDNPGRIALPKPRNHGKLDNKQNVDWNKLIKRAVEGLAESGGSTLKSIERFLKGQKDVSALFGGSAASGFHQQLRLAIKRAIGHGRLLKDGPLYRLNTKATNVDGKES
Sequence,E-score
GACACAGA,-0.0643
CATACGCA,0.131
CACGCGGG,0.265
AAGACACT,-0.0509
CAGATGGA,-0.015
GCTGGCGA,0.00781
ATTTTCGA,0.0353
AGTTAACG,0.148
ATCTTGCG,0.107
AGTTTTGC,0.0473
AGCTTTCG,-0.14
AATTCCGA,0.0239
ATGGAATG,0.0187
CAGAATCA,0.00536
ATACGCGC,0.304
AGTCTTTG,-0.165
ACAATCCG,0.181
AATATGCG,0.0725
TAATTGTA,-0.084
CTTCATTA,-0.0128
CGAAGCCA,-0.132
CAGTGGGG,-0.23
CGTTAAAA,0.0672
CAGTGGGA,-0.168
GTCGAGAA,-0.157

# Sample 5 — technique: RNA Bind-n-Seq; form: RNA; matrix: in vitro; concentration: 365 nM; relative to: no-protein control; reading: higher = stronger binding
# Target: RNA binding protein fox-1 homolog 2, RRM domain, GST-SBP tag (RBFOX2, Homo sapiens, UniProt O43251-10, residues 100-194)
# Setting: natural RNA segment, single round, ends assumed
# Constant ends, left off below: GGGAGUUCUACAGUCCGACGAUC … UGGAAUUCUCGGGUGCCAA
# Residues (chain): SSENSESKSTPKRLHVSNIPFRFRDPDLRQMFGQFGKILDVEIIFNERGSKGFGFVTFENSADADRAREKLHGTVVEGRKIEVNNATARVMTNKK
Sequence,RBNS enrichment (R)
CAGUGUUUGAGCCAAAUCUCCGCAAUUGAGAGCAGUGCAAGUGCUGAGAGGAUGUAGACUGGGCUGGGGCGAGAACAUGUCACACUAGAUCCCAGUCCACGAUGAUGAGU,0.42
AAAGCUUGUAAAUAUGGGGAUAGUCUGGGUCAGACCCAUCUCUCCCUUACCCAUCUUGCUUCCAAGACCAUUUGUAGUGAGCGAGUGGAUGCUGUGCUACGUGUGAAAUC,0.472
AAUUAAUUUAGCUGCAACCUUUUUAGGUAUUAAAUUACAUGACAAACAGUUAAAAUGAAUUUAAGAAUAAACAUAAGGCAUCGUUUUCAAUGAACAGUAAUAAUUUCCCA,0.569
AUGAGUACUAUAUUGCAAUAAAAUGUAGUGAUAUAAUUAACCAGCCAUUAAAAAUUUACUUCUACAGUACAGUGUCAAUUGAGUUUAUAUAUUAGGUACUUGCAUACUUU,0.55
AGGAGGGAAACUGUUGGACCGACUCCUGCCCCCUGCUCAACACUGACCCCUCUGAGUGGUUGGAGGCAGUGCCCCAGUGCCCAGAAAUCCCACCAUUAGUGAUUGUUUUU,0.602
UAAUAAAGGCAAGCGGGCUCCAGAGCCUCUCUGGUGGCGGCCAAGCCACACUCCCUUAACUGGGAAGUACCUGCCACGUAGGGCAUUUCUGCUGCCUAUUUCCAGCCAGC,0.173
GCACCCAUUUUUGAGAAAGCUGGUUCUACAUGGGGGGAUAGCUGUGGAAUAGAUAAUUUGCUGCAUGUUAAUUCUCAAGAACUAAGCCUGUGCCAGUGCUUUCCUAAGCA,14.4
GCUGGUAGGGAAAGACUCUGCACCUGCUGUCUUAGGGAAGAAAUGGUUCAAAUCCAUGUGGUGACAUUGCAUUAGUCUCCCUUUCACUGUUUUCUUAUUCUGUAAUUGUU,3.55
AAAACUACAUAGUCUUUCCUUAUUUUAUUUAGUAUGACAUUGUCAAUAGUAAUAAGGUAGCAUUUCUAGUCUUCCUCAUUACAAAAUGUAGCUGUUUUCUAAGUAGGAAA,0.268
CCAGAAAGGGAGGGCCACCGCUUUGCCCCCUGCUUUUACCCUUCCUUCUGGGUGCUCUACACCUCAGGUUACCAGGCCUGAGGCAUCUCAGCCAAGCUUGUUUCCUGCUC,0.512
UGCCUUUUUUCUUUCUUUUCUUGGGGGGAUGGGAUAAAUGGGAUAUUUUUUAAAGAAUAAAUCCCGCAUGUGAAAGUUUAUGAAGGUUACUAGCAGGUUCUUUUUAAAAG,6.83
GUAAUGACCAGUGGAUUUUUGUUUGGCUUUAUUAAUCUCAUCACAGUGUAUUCUGAUGUCUUAAGUGGUCAGAAAAGAGCACUAAGAAAUGGAUCUAUAUAACCAAUGAG,0.337
